Measured values from different studies.
A part holds a random share of what one study measured. Positions count from the first letter of the parent shown.

Study 1
Molecule: PhoQ, residues 284 288 289 292 302 303 SSLVEF
Technique: Sort-seq
Item: YFP reporter
Matrix: E. coli
Setting: PhoQ-PhoP variant library
With: 10 µM Mg2+
Relative to: high Mg2+ state
Direction: higher = stronger signaling
Measurement: fold induction
PhoP, residues 12 14 15 18 19 GMGLL (Escherichia coli, UniProt P23836): 2.77
PhoP, residues 12 14 15 18 19 LFHKL (Escherichia coli, UniProt P23836): 6.88
PhoP, residues 12 14 15 18 19 QQAYL (Escherichia coli, UniProt P23836): 5.62

Study 2
Target: Histone acetyltransferase KAT6A, winged helix 2, GST fusion (KAT6A, Homo sapiens, UniProt Q92794, residues 85-181)
Technique: protein binding microarray
Form: double-stranded DNA, one strand shown
Matrix: in vitro
Concentration: not given
Setting: 8-mer, flanks averaged, mean of 2 arrays, mostly near background
Relative to: not given
Direction: higher = stronger binding
Measurement: E-score
Residues (chain): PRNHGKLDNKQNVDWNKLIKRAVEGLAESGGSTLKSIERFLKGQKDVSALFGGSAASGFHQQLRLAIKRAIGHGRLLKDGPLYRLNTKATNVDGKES
GATATAAA: -0.0414
CAACTTCC: -0.0447
CCGTGTCC: 0.211
AGCAACCC: 0.0443
TGCGCACA: 0.106
AAGGAATA: -0.0561
ACATTGGG: -0.246
CAGGCATA: -0.0334

Study 3
Target: Interferon regulatory factor 5, full length, phosphomimetic (IRF5, Homo sapiens, UniProt Q13568-2, residues 1-514, K96S/S451D/S453D/S456D/S462D)
Technique: protein-binding microarray
Form: double-stranded DNA, one strand shown
Matrix: in vitro
Concentration: 250 nM
Setting: 60-bp whole probe
With: salmon DNA 0.4 mg/ml
Relative to: random background probes
Direction: higher = stronger binding
Measurement: log fluorescence
All sequences stand within: GCCTAGCAC … GTCTTGATTCGCTTGACGCTGCTG
TTAGGTCCCGGTTTCGGTTAGTGCTAG: 8.11 z-score
GACGGAATGGACTATCGGGACGTGCTA: 0.968 z-score
GACGGTTCCCTTTTTCTGACGTGCTAG: 0.47 z-score
TTATGTCTCGGTATCGGTTAGTGCTAG: 5.62 z-score
TTAGATATCAGTATCGACTAGTGCTAG: 4.79 z-score
GACGGTATCAACTATCGGGACGTGCTA: 2.17 z-score
TTAGAACTGGGGTTTCGGTTAGTGCTA: 6.89 z-score
TTAGGTTTCGGGTTTCGGATAGTGCTA: 9.25 z-score

Single results of other studies
Technique: yeast growth competition, sequencing
Matrix: yeast
Relative to: not given
Direction: higher = stronger binding
CCND3: CCND3, cyclin fold, Cln2 fusion (human)
P1: CDC6 docking peptide (human); TLKGRRLVFDNQL; partner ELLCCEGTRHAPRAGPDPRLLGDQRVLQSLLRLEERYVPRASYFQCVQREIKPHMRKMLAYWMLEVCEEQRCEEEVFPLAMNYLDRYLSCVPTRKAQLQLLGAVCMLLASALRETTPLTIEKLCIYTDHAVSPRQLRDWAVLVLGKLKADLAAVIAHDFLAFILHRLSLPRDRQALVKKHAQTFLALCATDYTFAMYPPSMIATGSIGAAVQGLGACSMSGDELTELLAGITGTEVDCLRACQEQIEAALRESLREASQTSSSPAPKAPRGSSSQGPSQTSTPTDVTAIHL
P2: PKN2 docking peptide (human); VSAVQKLDFSDTM; partner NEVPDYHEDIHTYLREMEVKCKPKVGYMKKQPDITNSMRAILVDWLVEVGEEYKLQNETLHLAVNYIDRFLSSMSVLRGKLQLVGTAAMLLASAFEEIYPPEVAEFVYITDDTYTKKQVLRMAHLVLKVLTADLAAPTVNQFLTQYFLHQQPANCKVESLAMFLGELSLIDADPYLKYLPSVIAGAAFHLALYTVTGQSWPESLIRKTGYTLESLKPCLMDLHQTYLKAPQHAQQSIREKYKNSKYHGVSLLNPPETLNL
P3: GMNC docking peptide (human); KNAKRNLSSEFAN
P1 F9Y
normalised enrichment score (CCND3; weak parent motif): 0.0815

P1 L7M
normalised enrichment score (CCND3; weak parent motif): 0.109

P2 M13G
normalised enrichment score (CCNA2, cyclin fold, Cln2 fusion (human); strong parent motif): 2.16

P3 F11R
normalised enrichment score (CCNE1, cyclin fold, Cln2 fusion (human); strong parent motif): -0.0589

A few entries again (study 2):
AGCAACCC: 0.0443
TGCGCACA: 0.106
AAGGAATA: -0.0561
ACATTGGG: -0.246
